{"data": "Measurements gathered from unrelated publications", "note": "Lines come from different studies, so protocols differ. ± marks the error that the study gave."}
{"SMILES": "CC1=C(/C=C/C(=O)N2CCN(C(N)=O)CC2)C(C)(C)CCC1", "host": "female mice", "sample": "retina", "route": "oral", "dose": "20 mg/kg", "Cmax": "2.13 nmol/g"}
{"SMILES": "CCCCCCc1ccc(Oc2ccccc2C#N)c(O)c1", "host": "CD-1 mice", "sample": "plasma", "route": "subcutaneous", "dose": "100 mg/kg", "Cmax": "760 ± 540 ng/mL"}
{"SMILES": "O=C(OCc1cccc(O)c1O)c1ccc(O)c(CO)c1", "host": "mice", "sample": "serum", "route": "intraperitoneal", "dose": "2.5 mg/kg/day", "Cmax": "< 10 nM"}
{"SMILES": "C[C@@H]1Cc2c([nH]c3ccccc23)[C@@H](c2c(F)cc(/C=C/C(=O)O)cc2F)N1C12CC(C1)C2", "host": "BALB/c nude mice MCF-7 xenograft", "sample": "tumour", "route": "oral", "dose": "10 mg/kg", "Cmax": "2.07 µg/g"}
{"SMILES": "CC=C1C(OC2OC(CO)C(O)C(O)C2O)OC=C(C(=O)OC)C1CC(=O)OCC1OC(OCCc2ccc(O)cc2)C(O)C(O)C1O (centres unmarked)", "host": "pseudo-germfree mice", "sample": "plasma", "route": "oral", "dose": "109.2 mg/kg", "Cmax": "2310 ng/mL"}
{"SMILES": "N=C(N)NCCC[C@@H]1NC(=O)[C@H](Cc2c[nH]c3ccccc23)NC(=O)[C@@H](CC2CCCCC2)NC(=O)[C@@H]2CCCN2C(=O)[C@@H](NC(=O)CCc2ccccc2)CCCNC1=O", "host": "C57BL/6J mice", "sample": "spinal cord", "route": "intravenous", "dose": "1 mg/kg", "Cmax": "0.45 µg/g"}
{"SMILES": "CC(C)(C)ONc1nc(Nc2ccnc(C(F)(F)F)c2)nc(-c2cccc(C(F)(F)F)n2)n1", "host": "female Balb/cA nude mice xenograft", "sample": "plasma", "route": "oral", "dose": "54.14 mg/kg", "Cmax": "4720 ng/mL"}
{"SMILES": "Oc1cc(F)ccc1Oc1ccccc1", "host": "CD-1 mice", "sample": "plasma", "route": "subcutaneous", "dose": "dose not given", "Cmax": "1820 ng/mL"}
{"note": "For quick reference, copied from above:"}
{"SMILES": "CC1=C(/C=C/C(=O)N2CCN(C(N)=O)CC2)C(C)(C)CCC1", "host": "female mice", "sample": "retina", "route": "oral", "dose": "20 mg/kg", "Cmax": "2.13 nmol/g"}
